Measured values gathered from unrelated publications.
Every numbered part comes from another study and shows a few of its results, in no order. Substitutions count along the parent as printed.

Series 1
Target: Histone acetyltransferase KAT6A, winged helix 2, GST fusion (KAT6A, Homo sapiens, UniProt Q92794, residues 85-181)
Method: protein binding microarray
Molecule type: double-stranded DNA, one strand shown
Medium: in vitro
Tested at: not given
Notes: 8-mer, flanks averaged, mean of 2 arrays, mostly near background
Relative to: not given
Direction: higher = stronger binding
Target sequence (chain): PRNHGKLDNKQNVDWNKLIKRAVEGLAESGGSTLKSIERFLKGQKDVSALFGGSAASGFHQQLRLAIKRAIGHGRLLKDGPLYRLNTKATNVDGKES
Strand | E-score
AAGACTCT | -0.136
AGTTAGGA | -0.0362
AATTTACG | -0.00208
ACGTTTAG | -0.233
GTGTGACA | -0.0853
AGTTCGTC | 0.169
TAAAGGGA | 0.0287
GGAGGCAC | 0.117
TCGAGCGA | 0.00161
GGAATTTA | 0.0696
AACTTCTT | -0.076
CCTAGATC | -0.15
CGATCTGC | 0.122
ACTGTTTA | -0.024
ATTTGAAA | 0.099
AGACCCTG | -0.0703
CCGGCGTA | 0.0335
GAAACCCA | 0.122
CGAGGTAA | 0.0288
CAATGCGA | 0.104

Series 2
Target: ATF5, bZIP domain (human)
Method: DHFR protein complementation
Medium: yeast
Notes: single substitutions, most at no-binding floor
Relative to: wild-type JUN-FOS pair
Direction: higher = stronger binding
Starting sequence: JUN, bZIP domain (human); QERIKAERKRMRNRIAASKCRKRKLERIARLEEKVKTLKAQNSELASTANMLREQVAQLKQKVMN; partner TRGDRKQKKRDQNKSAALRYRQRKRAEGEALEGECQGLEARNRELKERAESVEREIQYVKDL
Substitution | binding fitness [natural log]
A49P | -1.54
Q41I | -1.5
E54N | -1.53
I28V | -1.51
S47A | -1.55
E33A | -1.35
V35A | -1.54
L31K | -1.43
I28T | -1.4
V56N | -1.39
K36Q | -1.37
E44F | -1.46
L52Y | -1.52
I28Q | -1.35
K36F | -1.49
E44M | -1.49
E32D | -1.54
E44D | -1.13
V35P | -1.51
L31S | -1.49

Series 3
Target: UBE2B UBC core domain (UniProt P63146)
Sequence of UniProt P63146 (whole entry, looked up): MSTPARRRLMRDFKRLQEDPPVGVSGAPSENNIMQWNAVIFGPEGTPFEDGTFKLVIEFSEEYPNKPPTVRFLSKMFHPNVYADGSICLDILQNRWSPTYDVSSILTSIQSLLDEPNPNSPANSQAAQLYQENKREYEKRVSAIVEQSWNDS
Method: yeast two-hybrid
Medium: yeast
Notes: mostly zero background
Relative to: not given
Direction: higher = stronger interaction
B1: ZMIZ2 RING domain (UniProt Q8NF64); chain GTIPGTPGPNGEDGVEQTAIKVSLKCPITFRRIQLPARGHDCRHIQCFDLESYLQLNCERGTWRCPVCNKTALLEGLEVDQYMLGILIYIQNSDYEEITIDPTCSWK
B2: MAP3K1 RING domain (UniProt Q13233); chain NSIKDEEEQMCPICLLGMLDEESLTVCEDGCRNKLHHHCMSIWAEECRRNREPLICPLCRSKWRSHDFYS
B3: TRIM62 RING domain (UniProt Q9BVG3); chain MACSLKDELLCSICLSIYQDPVSLGCEHYFCRRCITEHWVRQEAQGARDCPECRRTFAEPALAP
B4: UBOX5 RING domain (UniProt O94941); chain EQPGSILGPECASCKRVFSPYFKKEPVYQLPCGHLLCRPCLGEKQRSLPMTCTACQRPVASQDVLR
B5: RNF19A RING domain (UniProt Q9NV58); chain ISKQIGDFIECPLCLLRHSKDRFPDIMTCHHRSCVDCLRQYLRIEISESRVNISCPECTERFNPHDIR
Sequence | lacZ reporter activity
AMYLQENGIDCPKCKFSYALARGGCMHFHCTQCRHQFCSGCYNAFYAKNKC (RNF31 RING domain (UniProt Q96EP0)) | 0
B1 (ZMIZ2 RING domain) | 0
B2 (MAP3K1 RING domain) | 0
PEDRESLKSACVVCLSSFKSCVFLECGHVCSCTECYRALPEPKKCPICRQAITRVIPLY (MUL1 RING domain (UniProt Q969V5)) | 0
KETIKKTTKPCPRCHVPVEKNGGCMHMKCPQPQCRLEWCWNCGCEWNRVCMG (PRKN RING domain (UniProt O60260)) | 0
NLSELTPYILCSICKGYLIDATTITECLHTFCKSCIVRHFYYSNRCPKCNIVVHQTQPLY (PCGF6 RING domain (UniProt Q9BYE7)) | 0
KLRKLKEAMLCMVCCEEEINSTFCPCGHTVCCESCAAQLQSCPVCRSRVEHVQHVY (MYLIP RING domain (UniProt Q8WY64)) | 0
B3 (TRIM62 RING domain) | 0
B4 (UBOX5 RING domain) | 0
YQNEVDDDLVCHICLQPLLQPLDTPCGHTFCYKCLRNFLQEKDFCPLDRKRLHFKLCKK (LNX2 RING domain (UniProt Q8N448)) | 0
B5 (RNF19A RING domain) | 0

Series 4
Target: ABI1, truncated, D143A, DHFR fusion (Arabidopsis thaliana)
Method: DHFR PCA, deep sequencing
Medium: yeast
Notes: methotrexate growth selection, single substitutions
Added: (+)-ABA 710 µM
Relative to: wild-type fitted maximum
Direction: higher = stronger binding
Starting sequence: PYL1, truncated, DHFR fusion (Arabidopsis thaliana); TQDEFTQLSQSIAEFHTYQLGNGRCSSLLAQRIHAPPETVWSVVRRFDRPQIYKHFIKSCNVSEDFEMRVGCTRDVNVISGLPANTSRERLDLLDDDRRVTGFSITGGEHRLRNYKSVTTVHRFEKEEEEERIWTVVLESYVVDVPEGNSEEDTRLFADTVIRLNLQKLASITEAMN; partner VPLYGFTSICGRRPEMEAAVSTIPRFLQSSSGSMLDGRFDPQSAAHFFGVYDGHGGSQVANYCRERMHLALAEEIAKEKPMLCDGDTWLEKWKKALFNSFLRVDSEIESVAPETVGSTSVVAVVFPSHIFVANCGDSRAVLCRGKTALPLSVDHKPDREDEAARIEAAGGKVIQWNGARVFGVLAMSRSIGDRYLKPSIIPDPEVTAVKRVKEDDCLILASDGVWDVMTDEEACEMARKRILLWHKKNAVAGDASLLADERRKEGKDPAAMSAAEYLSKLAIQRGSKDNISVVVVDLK
Substitution | relative binding score [%]
R98F | 95.3
L29V | 102
E152I | 97.6
S27R | 91
H110R | 17.7
Q167V | 95.8
A158G | 85.8
L164F | 100
D153A | 68.8
T106H | 97.6
Q51D | 94.7
D96H | 94.3
R163M | 80.3
N22M | 106
Y141F | 90.7
V136F | 104
R88Y | 104
D97M | 111
T173E | 30.9
I57Y | 71

Series 5
Target: CCND3, cyclin fold, Cln2 fusion (human)
Method: yeast growth competition, sequencing
Medium: yeast
Notes: weak parent motif
Relative to: not given
Direction: higher = stronger binding
Starting sequence: RRM2 docking peptide (human); SKTARRIFQEPTE; partner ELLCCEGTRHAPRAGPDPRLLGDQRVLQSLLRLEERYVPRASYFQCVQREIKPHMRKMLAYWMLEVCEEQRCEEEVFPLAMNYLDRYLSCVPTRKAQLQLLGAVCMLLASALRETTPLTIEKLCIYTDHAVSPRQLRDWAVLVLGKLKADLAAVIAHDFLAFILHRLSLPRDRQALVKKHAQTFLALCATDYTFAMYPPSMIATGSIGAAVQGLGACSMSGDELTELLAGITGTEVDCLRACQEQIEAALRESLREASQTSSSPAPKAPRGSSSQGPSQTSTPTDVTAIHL
Substitution | normalised enrichment score
AKTARRIFQEPTE [S1A] | 0.305
SKTAARIFQEPTE [R5A] | 0.232
SKTARRIAQEPTE [F8A] | 0.459
SKTARAIFQEPTE [R6A] | 0.0545
SKAARRIFQEPTE [T3A] | -0.163
SKTARRIFQEPTA [E13A] | 0.389

Series 6
Target: RNA binding protein fox-1 homolog 2, RRM domain, GST-SBP tag (RBFOX2, Homo sapiens, UniProt O43251-10, residues 100-194)
Method: RNA Bind-n-Seq
Molecule type: RNA
Medium: in vitro
Tested at: 365 nM
Notes: natural RNA segment, single round, ends assumed
Relative to: no-protein control
Direction: higher = stronger binding
Constant ends, left off below: GGGAGUUCUACAGUCCGACGAUC … UGGAAUUCUCGGGUGCCAA
Strand | RBNS enrichment (R)
UCCUAAUAUUUAUAGCCAGCAGCUGUUACUUUGUUUGUAAAAUUUGCAAAAAAACAAAACCUGAAGUUGGUUUAUUGAAAGAAUUAUAAGGAUAGCUUCUAGGGAUAUUA | 0.953
AUACAGUGUGAUUUCAUGCUUUUGAACAUCUUUUUUUCAUUGAAACAAAUUCAAGUUCUUGGCUUAAAAAAAAAUUAGUGAUGUCUUUAAAAAAUAUUCUGUUACACUAC | 0.808
UAAAUAAGUGCAUUGAGAAGAACAUGGAGAGGAUGCUGUCCUCUGCAACAGAGACAGGCCCGUGGCGGGGCGCCUCUGGUCCUGGUGCUCAUCACGGCUGGCUUCUCUGA | 0.746
GAACCUUUCCCGUUACUGCGUUUUCACCACCUGUCUUCCCCAUGCUUUAUUUAUCUGUAUGAACACAGAUUUGACAUUACAGCUAAGGAAAUAAUUUGAGUUGAUUCAGA | 0.4
UCUGCUGAACCAUUUUUCUUAGGAUGCAGCCGUCUCACUCCCUUGUCCUGUAAAUCGUGUAUUCAUGUUGAUGAUUCUUGGAGAUAGGUUUCACUUUUUCCCAGCUGCGU | 0.607
ACAUUUCCUGUAACGGAAGUGUUAAUUUUACUGUACUUUUUGGUACCUUUUGGGAAUCUAAUGUAUUGUAAGGUAUUUUACACGUGUCCUGAUUUUGCCACAACCUGGAU | 0.385
AGAGCAAGCCUGAAGACGGCCCCUGGAAGACAAACCCAAGCUGAGGGAAUCCAGGCCCAGCAAGAGACAUGCCAAUGGCGACUGUAGGUCCCUCCAUGUGUGCUGACUCC | 0.547
AUUUCUGCUUCAGCCACCAAGCAGUUGUCUGUGUCCCUCAUCCAGAGGGGGCCUUGGCCACCAACAGUUCCAAACCAGGUCAGCUGUUAGCCGUCUCAUUGGCCAGUGGC | 0.767
CUUGCAUCCAUGCCCAGCCAAUAUACAACUGUAAAGCAAAUAUAGAAAGUCGGCUGUUGAUACGAUUGUCUGUUAUCGAACACAUUCAGUGAUAAAGCUGGGUUACUGCU | 1.04
GAGGAGGCACCCUUGAAUGACUGCAGACCAGCUGUGGGCACUCGCUGCUCCUCCAGGAAAGGGUGAGGUCCGUGCUCAGCUAUGCUUGCAGGCCUGCUGUCCUCACUCCA | 1.25
GGCACUACUCCGAGGGUCCCUCACUCUACAAGGUCUUUGUUAGUAUUAAAGGCCACUGUUUUGCAUGAAUGUCCCAUUUGCAUUACUUUCAUUAUUGUCAGAAUUGCUCU | 1.23
AAGAUGAACCAAAGGAUUAGCCUCGCGCUACGUCAUUGCAUCCGCUCCCCCUCGUCCUGACUCAGCUCGGGUGUGUGCAGCAUCAGGCUGUGCCUGCUCCAGAGGCAUGG | 0.446

Repeated from above (series 6):
Strand | RBNS enrichment (R)
GAACCUUUCCCGUUACUGCGUUUUCACCACCUGUCUUCCCCAUGCUUUAUUUAUCUGUAUGAACACAGAUUUGACAUUACAGCUAAGGAAAUAAUUUGAGUUGAUUCAGA | 0.4
UCUGCUGAACCAUUUUUCUUAGGAUGCAGCCGUCUCACUCCCUUGUCCUGUAAAUCGUGUAUUCAUGUUGAUGAUUCUUGGAGAUAGGUUUCACUUUUUCCCAGCUGCGU | 0.607
ACAUUUCCUGUAACGGAAGUGUUAAUUUUACUGUACUUUUUGGUACCUUUUGGGAAUCUAAUGUAUUGUAAGGUAUUUUACACGUGUCCUGAUUUUGCCACAACCUGGAU | 0.385
AGAGCAAGCCUGAAGACGGCCCCUGGAAGACAAACCCAAGCUGAGGGAAUCCAGGCCCAGCAAGAGACAUGCCAAUGGCGACUGUAGGUCCCUCCAUGUGUGCUGACUCC | 0.547
AUUUCUGCUUCAGCCACCAAGCAGUUGUCUGUGUCCCUCAUCCAGAGGGGGCCUUGGCCACCAACAGUUCCAAACCAGGUCAGCUGUUAGCCGUCUCAUUGGCCAGUGGC | 0.767
CUUGCAUCCAUGCCCAGCCAAUAUACAACUGUAAAGCAAAUAUAGAAAGUCGGCUGUUGAUACGAUUGUCUGUUAUCGAACACAUUCAGUGAUAAAGCUGGGUUACUGCU | 1.04
GAGGAGGCACCCUUGAAUGACUGCAGACCAGCUGUGGGCACUCGCUGCUCCUCCAGGAAAGGGUGAGGUCCGUGCUCAGCUAUGCUUGCAGGCCUGCUGUCCUCACUCCA | 1.25
